Results of several laboratories.
Cell line: MCF7

| SMILES | effect on | technique | concentration | time | baseline | inhibition |
| --- | --- | --- | --- | --- | --- | --- |
| COc1ccc(C2=Nn3c(NN=C4C(=O)N(Cc5ccccc5)c5ccc(Cl)cc54)nnc3SC2)cc1 | cell growth or viability | SRB | 10 µM | – | – | 35% |
| COc1cccc(Cc2c[nH]c3ncccc23)c1 | cell growth or viability | – | 10 µM | 72 h | – | 16% |
| COc1ccc(SCC(=O)c2ccc(O)cc2O)cc1 | cell growth or viability | MTT | 100 µM | 48 h | – | 5.48% |
| COc1cc(/C=C/C(=O)/C=C(O)/C=C/c2ccc(OCC(=O)N3CCOCCOCCOCCOCC3)c(OC)c2)ccc1OCC(=O)N1CCOCCOCCOCCOCC1 | cell growth or viability | SRB | 5 µM | – | – | 4.69% |
| CCNC(=S)N/N=C(\C)c1ccccn1 | cell growth or viability | SRB | 100 µg/mL | 48 h | – | 69.8% |
| COc1ccc2cc3[n+](cc2c1OCc1cn(Cc2c(Cl)cc(Cl)cc2Cl)nn1)CCc1cc2c(cc1-3)OCO2.[Cl-] | cell growth | MTT | 7.8 µM | – | – | > 45% |
| C[C@]1(CO)C2CC[C@@]3(CO3)[C@@H](/C=C/C3=CCOC3=O)[C@]2(C)CC[C@H]1O (stereo partly drawn) | cell growth or viability | MTT | 20 µM | 48 h | – | 15.2% |
| FC(F)(F)c1cnc2[nH]cc(Cc3cccc(Oc4ccccc4)c3)c2c1 | cell growth or viability | – | 10 µM | 72 h | – | 26% |
| CC(C)(C)c1cc2c(O)c(c1)Cc1cc(C(C)(C)C)cc(c1OCC(=O)Nc1cncc3ccccc13)Cc1cc(C(C)(C)C)cc(c1O)Cc1cc(C(C)(C)C)cc(c1OCC(=O)Nc1cncc3ccccc13)COC2 | cell growth or viability | MTT | 15 µM | 72 h | – | 94% |
| COc1ccc(CC(C)=C(c2ccc(Cl)cc2)c2ccc(OCCN3CCOCC3)cc2)cc1 | cell growth or viability | – | 10 µM | – | – | 14.1% |
| Nc1cc(-c2cc(-c3ccccc3)c(C(F)(F)F)s2)n[nH]1 | cell growth or viability | MTT | 100 µM | 48 h | – | 25.9% |
| O=C(COc1ccc(/C=N/Nc2nc(-c3ccc(Cl)cc3)cs2)cc1)N1CCN(C(=O)COc2ccc(/C=N/Nc3nc(-c4ccc(Cl)cc4)cs3)cc2)CC1 | cell growth or viability | SRB | 100 µM | 48 h | – | 82.4% |
| CC(C)(C)c1cc2c(O)c(c1)Cc1cc(C(C)(C)C)cc(c1OCC(=O)NCc1ccccn1)Cc1cc(C(C)(C)C)cc(c1O)Cc1cc(C(C)(C)C)cc(c1OCC(=O)NCc1ccccn1)COC2 | cell growth or viability | MTT | 15 µM | 72 h | – | 67% |
| C/C(=N\N=C1/NC(=O)CS1)c1ccccn1 | cell growth or viability | SRB | 100 µg/mL | 48 h | – | 65.4% |
| FC(F)(F)c1cccc(Cc2c[nH]c3ncc(C(F)(F)F)cc23)c1 | cell growth or viability | – | 10 µM | 72 h | – | 51% |
| COc1ccc(CN(CCCCCCC(=O)NO)Cc2ccc(OC)c(OC)c2)cc1OC | – | – | 10 µM | – | – | 55% |
| C=C/C(=C/C(=O)C[C@H](C)C[C@@H](C)CC[C@H](O)[C@H](C)C(=O)/C=C/[C@H](C)[C@@H](C)O)CC | cell growth or viability | MTT | 20 µM | 48 h | – | 70% |
| CC(=C(c1ccc(Cl)cc1)c1ccc(OCCN(C)C)cc1)c1ccc(Cl)cc1 | cell growth or viability | – | 10 µM | – | – | 6.63% |
| O=C(COc1ccccc1/C=N/Nc1nc(-c2ccc(Cl)cc2)cs1)N1CCN(C(=O)COc2ccccc2/C=N/Nc2nc(-c3ccc(Cl)cc3)cs2)CC1 | cell growth or viability | SRB | 100 µM | 48 h | – | 76% |
| CCC(=C(c1ccc(Cl)cc1)c1ccc(OCCCN(C)C)cc1)c1ccc(OC)cc1 | cell growth or viability | – | 10 µM | – | – | 90.9% |

| SMILES | effect on | technique | concentration | time | baseline | inhibition |
| --- | --- | --- | --- | --- | --- | --- |
| COc1ccc(C2=Nn3c(NN=C4C(=O)N(C)c5ccc(Br)cc54)nnc3SC2)cc1 | cell growth or viability | SRB | 10 µM | – | – | 30% |
| Cc1nc2ccc(Cc3c[nH]c4ncc(C(F)(F)F)cc34)cc2o1 | cell growth or viability | – | 10 µM | 72 h | – | 22% |
| Nc1ccc(Oc2c(F)c(F)c(Oc3ccc(N)cc3)c(F)c2F)cc1 | cell growth or viability | MTT | 100 µM | 48 h | – | 16.9% |
| OC(c1cccc(C(F)(F)F)c1)c1c[nH]c2ncc(C(F)(F)F)cc12 (stereo not drawn) | cell growth or viability | – | 10 µM | 72 h | – | 33% |
| CC(=O)OCC1=CCC2[C@]3(C)COC(c4ccccc4)O[C@@H]3CC[C@@]2(C)[C@@H]1/C=C/C1=CCOC1=O (stereo partly drawn) | cell growth or viability | MTT | 20 µM | 48 h | – | 2.87% |
| CCC(=C(c1ccc(Cl)cc1)c1ccc(OCCN2CCCCC2)cc1)c1ccc(Cl)cc1 | cell growth or viability | – | 10 µM | – | – | 73.4% |
| CC(C)(C)c1cc2c(O)c(c1)Cc1cc(C(C)(C)C)cc(c1OCC(=O)NCc1ccncc1)Cc1cc(C(C)(C)C)cc(c1O)Cc1cc(C(C)(C)C)cc(c1OCC(=O)NCc1ccncc1)COC2 | cell growth or viability | MTT | 15 µM | 72 h | – | 96% |
| CC(Cc1ccc(Cl)cc1)=C(c1ccc(Cl)cc1)c1ccc(OCCN2CCCCC2)cc1 | cell growth or viability | – | 10 µM | – | – | 36.7% |
| CCOC(=O)C/C(C)=N/NC(=O)c1nc2ccccc2n(C)c1=O | cell growth or viability | MTT | 10 µM | – | – | 96% |
| COc1ccc(CC(C)=C(c2ccc(Cl)cc2)c2ccc(OCCN3CCCCCC3)cc2)cc1 | cell growth or viability | – | 10 µM | – | – | 37.3% |
| CC12COC(c3ccccc3)OC1CCC1(C)C(C=CC3=CCOC3=O)C(CO)=CCC21 (stereo not drawn) | cell growth or viability | MTT | 20 µM | 48 h | – | 0% |
| CCC(=C(c1ccc(Cl)cc1)c1ccc(OCCN(C)C)cc1)c1ccc(OC)cc1 | cell growth or viability | – | 10 µM | – | – | 3.34% |
| OC(c1ccc(OCc2ccccc2)cc1)c1c[nH]c2ncc(C(F)(F)F)cc12 (stereo not drawn) | cell growth or viability | – | 10 µM | 72 h | – | 25% |
| COc1ccc(C=CC(=O)c2cccc(O)c2)cc1 | cell growth | MTT | 100 µM | 48 h | DMSO | 89.3% |
| COc1cccc(C(O)c2c[nH]c3ncc(C(F)(F)F)cc23)c1 (stereo not drawn) | cell growth or viability | – | 10 µM | 72 h | – | 33% |
| OCc1ccc(-c2cc(C(F)(F)F)cc(C(F)(F)F)c2)o1 | cell growth or viability | MTT | 100 µM | 48 h | – | 4.3% |
| FC1(F)Oc2ccc(Cc3c[nH]c4ncc(C(F)(F)F)cc34)cc2O1 | cell growth or viability | – | 10 µM | 72 h | – | 46% |
| CC(C)(C)c1cc2c(O)c(c1)Cc1cc(C(C)(C)C)cc(c1OCC(=O)NCc1cccnc1)Cc1cc(C(C)(C)C)cc(c1O)Cc1cc(C(C)(C)C)cc(c1OCC(=O)NCc1cccnc1)COC2 | cell growth or viability | MTT | 15 µM | 72 h | – | 95% |
| CCC(=C(c1ccc(Cl)cc1)c1ccc(OCCN2CCOCC2)cc1)c1ccccc1 | cell growth or viability | – | 10 µM | – | – | 13.8% |

Repeated from above:
| SMILES | effect on | technique | concentration | time | baseline | inhibition |
| --- | --- | --- | --- | --- | --- | --- |
| COc1cccc(C(O)c2c[nH]c3ncc(C(F)(F)F)cc23)c1 (stereo not drawn) | cell growth or viability | – | 10 µM | 72 h | – | 33% |
| OCc1ccc(-c2cc(C(F)(F)F)cc(C(F)(F)F)c2)o1 | cell growth or viability | MTT | 100 µM | 48 h | – | 4.3% |
| FC1(F)Oc2ccc(Cc3c[nH]c4ncc(C(F)(F)F)cc34)cc2O1 | cell growth or viability | – | 10 µM | 72 h | – | 46% |
